# Published values from different studies.
# Parts stem from different laboratories: compare values within a part only. Changes are numbered by the printed parent chain.

# Sample 1 — method: protein-binding microarray; molecule type: double-stranded DNA, one strand shown; sample: in vitro; concentration: 250 nM; notes: 60-bp whole probe; together with: salmon DNA 0.4 mg/ml; relative to: random background probes; reading: higher = stronger binding; constant ends, left off below: GCCTAGCAC … GTCTTGATTCGCTTGACGCTGCTG
# Target: Interferon regulatory factor 7, full length, phosphomimetic (IRF7, Homo sapiens, UniProt Q92985, residues 1-503, S101K/S471D/S472D/S475D/S476D/S477D/S483D/S484D/S487D)
# Target sequence (chain): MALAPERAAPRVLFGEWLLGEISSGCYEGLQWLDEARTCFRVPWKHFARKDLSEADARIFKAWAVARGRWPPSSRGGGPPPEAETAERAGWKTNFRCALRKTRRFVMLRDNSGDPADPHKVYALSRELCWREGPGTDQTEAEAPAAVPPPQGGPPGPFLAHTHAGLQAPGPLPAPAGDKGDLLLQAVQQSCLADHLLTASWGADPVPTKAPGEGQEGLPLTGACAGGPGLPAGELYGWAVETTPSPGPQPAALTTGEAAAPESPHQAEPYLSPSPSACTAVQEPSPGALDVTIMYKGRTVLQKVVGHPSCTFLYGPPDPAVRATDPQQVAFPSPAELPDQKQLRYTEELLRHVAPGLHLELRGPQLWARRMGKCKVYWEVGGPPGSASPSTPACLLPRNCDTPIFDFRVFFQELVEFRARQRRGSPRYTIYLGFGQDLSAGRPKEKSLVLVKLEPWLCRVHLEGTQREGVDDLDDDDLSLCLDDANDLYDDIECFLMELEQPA
Strand,log fluorescence [z-score]
TCAGGTTTCCTACTGCTTTAGTGCTAG,1.4
TTCGTTTTGTGTCTGGGCATGTGCTAG,1.41
GACGGACAGCTTTTCCTGACGTGCTAG,-0.459
TCACATCTCGGAGATCTCACTGTGCTA,0.227
GACGAACTGAGTATCGAGATGTGCTAG,0.149
GACGAACTGGAGACTGGAGACGTGCTA,-0.45
TTAGATTTCAGTCTCGATGAGTGCTAG,0.488
GACGAACTGCGTTTCGAGACGTGCTAG,0.621
TTAGAACTGACACTGGATTAGTGCTAG,-0.306
GCTCCTTTTAATTTTTAACGGTGCTAG,2.34
ATAGGACTGGGGTATCGGTTAGTGCTA,0.252
TTAGGTCTCCTTTTCCCTTAGTGCTAG,1.78
GACGGTATACTTTTCCTGACGTGCTAG,0.279
GACGATTTCGGGTATCGCGACGTGCTA,0.471
GACCATATCAGACTGGAGACGTGCTAG,0.149
TTAGATCTCAGTTTCGATTGGTGCTAG,9.73
GACGGTCTCATTTTCCTGACGTGCTAG,1.79
GACGGACTTGGTATCGGGACGTGCTAG,0.0746
TCAGTTCTGAGTCTTCCACTGTGCTAG,0.108

# Sample 2 — target: CCNF, cyclin fold, Cln2 fusion (human); method: yeast growth competition, sequencing; sample: yeast; notes: strong parent motif; relative to: not given; reading: higher = stronger binding
# Parent: RBL2 docking peptide (human); STTRRRLFVENDS
Change,normalised enrichment score
STTRRRLFSENDS [V9S],8.01
STTARRLFVENDS [R4A],7.29
STTRRRLRVENDS [F8R],2.1
STTRRRAFVENDS [L7A],0.905
STTRRRLFVVNDS [E10V],7.37
STHRRRLFVENDS [T3H],4.93
STTRRRLFVENCS [D12C],8.06
STTRRRSFVENDS [L7S],-0.179
STTKRRLFVENDS [R4K],7.2
STTGRRLFVENDS [R4G],3.26
STTYRRLFVENDS [R4Y],5.19
STTVRRLFVENDS [R4V],6.81
STTRRRLFEENDS [V9E],7.35
STTRRGLFVENDS [R6G],3.32
STTRRCLFVENDS [R6C],6.98
STTRRRLQVENDS [F8Q],3.63
STTRRRLWVENDS [F8W],3.95
SYTRRRLFVENDS [T2Y],8.13
STTPRRLFVENDS [R4P],3.2
STTRRRYFVENDS [L7Y],0.567
STTRRRLFVENGS [D12G],8.3
STTRRRCFVENDS [L7C],1.09
SMTRRRLFVENDS [T2M],7.88
STTRRRNFVENDS [L7N],-0.415
STTRMRLFVENDS [R5M],0.793

# Sample 3 — method: RNAcompete; molecule type: RNA; sample: in vitro; concentration: 20 nM; notes: 7-mer, probes averaged, single round; relative to: mean of 7-mers; reading: higher = stronger binding
# Target: PABPC1L2, full length, GST fusion (mouse, UniProt A0ABA7IW68)
# Construct (chain): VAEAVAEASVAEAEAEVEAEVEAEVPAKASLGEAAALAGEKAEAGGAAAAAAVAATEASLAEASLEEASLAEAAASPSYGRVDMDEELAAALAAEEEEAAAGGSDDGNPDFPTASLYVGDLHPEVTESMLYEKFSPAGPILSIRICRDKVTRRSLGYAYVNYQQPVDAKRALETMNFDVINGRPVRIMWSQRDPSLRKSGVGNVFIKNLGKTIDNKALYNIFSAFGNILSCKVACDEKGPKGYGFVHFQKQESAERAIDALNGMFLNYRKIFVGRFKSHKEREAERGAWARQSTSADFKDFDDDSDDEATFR
Strand,7-mer Z-score
UGCGCGC,-0.296
GUGACCU,-0.148
UACCCUG,-0.322
CGGUAAA,0.992
CACCCCU,-0.253
AAGACCA,0.535
GGUCCUU,-0.186
UUAGGCU,-0.208
ACAACCU,0.0134
AGAGAUU,-0.113
AAUCCCA,0.0334
AUGGGAU,0.244
GACGUUA,-0.182
AGCAGGG,0.148
AAGCUAA,0.0478
AGUUUAA,-0.0409
UUAGCCG,-0.219
UAUGCCA,-0.0899
UUGAUUC,-0.251
UUCUGGU,-0.164

# Sample 4 — method: RNA Bind-n-Seq; molecule type: RNA; sample: in vitro; concentration: 365 nM; relative to: no-protein control; reading: higher = stronger binding
# Target: RNA binding protein fox-1 homolog 2, RRM domain, GST-SBP tag (RBFOX2, Homo sapiens, UniProt O43251-10, residues 100-194)
# Notes: natural RNA segment, single round, ends assumed
Strand,RBNS enrichment (R)
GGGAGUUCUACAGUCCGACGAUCUGUACAGUAAUGAAGUUCACUGUGUUUAUAAAUUGAAAAGGUACCAGGUCUUACAGCAUUUUAUAUAUCACAUCUUUACAGAAUAACAUGAUGGCAAUAUACAAGUGGUAUGGAAUUCUCGGGUGCCAA,0.611
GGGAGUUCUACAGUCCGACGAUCUAAAAAGUACAAAUUAAAAGAUUUGAGAAAGUGGUAUUUUUUUCUGAAAGCAAACAAUGGCUUGUAAAGUCAUUUGAAGAGACUUUCCAAUAUGAAUUCAAAAUUCCACUUGGAAUUCUCGGGUGCCAA,0.502
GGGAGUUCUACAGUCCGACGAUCAGGAAGACCCUCCAUCCUCUGGUAUUAACGCCUUAAUGCCCCUGUCUUUUACUGUAAGUUACUUAAGAUCAUUUUUGGAAGCAGGCGUGGUAGAGUCCUGUAAAUGAAUGUGGAAUUCUCGGGUGCCAA,0.452
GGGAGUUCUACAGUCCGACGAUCUCACACUGAUGGCAGGACACACAAGAGCAGGGUAUUGGUCUGCCCUUCUUCCUCCUGUCCGUCUGAUUUACCUAACUUUGGUCUCGGCUGCUGACUCUUGGAGAGGACCAUGGAAUUCUCGGGUGCCAA,0.427
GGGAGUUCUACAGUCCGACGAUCCUUUUUUUCCAUGGUGAAGAGCAAUAAACUCUGGAUGUUUGUGCGCGUGUGUGGACAGUCUUAUCUUCCAGCAUGAUAGGAUUUGACCAUUUUGGUGUAAACAUUUGUGUUGGAAUUCUCGGGUGCCAA,0.871
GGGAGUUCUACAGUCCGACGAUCGACGGCACAAGGUUUUCUGUAGGAAAGCUGCCAUUGCCCCGGCCCCUUUUCUUCCUUUGUCCCGUUGUCGAGGUUUUUUCAAAUAGCGUGUUGUUCAGUAUGCAAAUCAAUGGAAUUCUCGGGUGCCAA,0.492
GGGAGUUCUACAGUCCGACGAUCAUAUUACAGAGAAUUAUUUUCUGAGAUAAUCUUAAACUAGAAUGUUCAAAACUAAUUGAUAAUUGAAGUAUCAAGAUACGUAGAACACCUCAGAGAUUUUUCUUCAGGAAUGGAAUUCUCGGGUGCCAA,0.499
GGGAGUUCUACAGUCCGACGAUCGGGUCAGCUCUUCUGUGGAUUGCAUGGCGUGUGAUUAAAAGCCCAUGUGUUCCCACACAUCCACAUCAUGGGAAGGUUAAUGUGUGCCUCCUUGGAACUGGGUGUUGGUGUGGAAUUCUCGGGUGCCAA,3.93

# For quick reference, copied from above (sample 3):
Strand,7-mer Z-score
AAUCCCA,0.0334
AUGGGAU,0.244
GACGUUA,-0.182
AGCAGGG,0.148
AAGCUAA,0.0478
AGUUUAA,-0.0409
UUAGCCG,-0.219
UAUGCCA,-0.0899
UUGAUUC,-0.251
